Assay results pooled from the literature.
Parts stem from different laboratories: compare values within a part only. Positions count from the first letter of the parent shown.

Series 1
Target: RNA binding protein fox-1 homolog 2, RRM domain, GST-SBP tag (RBFOX2, Homo sapiens, UniProt O43251-10, residues 100-194)
Method: RNA Bind-n-Seq
Form: RNA
Sample: in vitro
Concentration: 365 nM
Notes: natural RNA segment, single round, ends assumed
Relative to: no-protein control
Direction: higher = stronger binding
Construct (chain): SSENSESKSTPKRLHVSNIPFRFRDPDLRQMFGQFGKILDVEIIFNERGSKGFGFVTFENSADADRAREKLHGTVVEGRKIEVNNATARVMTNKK
For `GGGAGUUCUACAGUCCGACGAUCGGCACGGGGUGAAGAAUCUGCCCAUCAAGGUGGGUGGGCCUCAUGUCGCUGCCCCCACCAGAGUCCUAAAACCUGGAUGGACUUGGACGGGACAAGAGGCCUGGACUGAGUGGAAUUCUCGGGUGCCAA`, “RBNS enrichment (R)” read 0.409.
For `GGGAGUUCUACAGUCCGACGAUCGUUAGCACUGAUAGUCCUUUUUCCAAUGUUUUAUUGGGGAAUUAAAUAGUGUGAUGUUUGGAUUGAUAUCGUGAAAUCCUCAGCCGAGAAAUUGGGCUGGAUUGUGCUUUUGGAAUUCUCGGGUGCCAA`, “RBNS enrichment (R)” read 0.5.
Under “RBNS enrichment (R)”, `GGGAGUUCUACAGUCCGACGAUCACAAAUUUAUAGAUGCAAACCAAAAGAUCUUUUUAAAAGAGAGAGAGAGGAAAAAAAUCACCUUUUAUUUGUUUGGGUCUCAUUGUCAGAAUUAUUAUUCAGAUCAAGAAUGGAAUUCUCGGGUGCCAA` is recorded as 0.652.
For `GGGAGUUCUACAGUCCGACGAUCUUCAUUAGCAAGUGAGUUUGGUGUUUUAUAGGUCACAUAUGUCUGUAUCUACUUAGCCAGAUGCUUGGCCUGGUGGGACCAGGGCUCCACAGAGGCCACAAAAUGUUGCAUGGAAUUCUCGGGUGCCAA`, “RBNS enrichment (R)” read 3.55.
Under “RBNS enrichment (R)”, `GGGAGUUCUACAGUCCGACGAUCAAUCAAUUUAAUGUUUAAUGCAAAUCCAUUACAUGGUGCUAUUACAGGCUGACAAAAUGAUUCACACGAAUGUGACAACUCGGGCUCAGUUCACUCUGCUUCCCAACAGUUGGAAUUCUCGGGUGCCAA` is recorded as 0.286.
`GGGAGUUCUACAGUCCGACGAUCUUUUUCUAAGAAGAAAAUUCAGAAGAAAAGUAACUGAGUUUUGUUACUGGUAAAAUGGAAAUACUUCACAGAGUGAAUAAAGAAUACUUUUUUUUUUGUAAAUGUUCUGUUGGAAUUCUCGGGUGCCAA`: “RBNS enrichment (R)” 0.557.
`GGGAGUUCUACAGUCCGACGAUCUAUUGUCACUCAGCCAACAACUUUUCCACACCUGGGGGUUGGUGGCUGUUCUUACUGUCCAAAUGAAGCUAAAAAGAAAGGCAUCUUUCUUCCCUUUUAAAAUUGUGUAAUGGAAUUCUCGGGUGCCAA`: “RBNS enrichment (R)” 0.234.
Under “RBNS enrichment (R)”, `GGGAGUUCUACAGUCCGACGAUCUGGCUCAUCAGCCAGCAUUGGUGAAUAUUCAGUUUAGGGGAACAGUUCUAGGGAGUGAGACAUUUUUGGGAGCAGAGGAAAACUCUGCUGAUGUUCGGUCCUGGCAAACAUGGAAUUCUCGGGUGCCAA` is recorded as 0.609.
`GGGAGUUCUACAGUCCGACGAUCAAAGGAAAAUGGCUUUGAAAAUGAGACAGUCUUUGUGGGUUUUGUCGUUGGUUUUUGUUUGUUUACUUGGUUUUCUCAUGUCCAGCACGGAGGUCUCCAGUUCACAAGAGUGGAAUUCUCGGGUGCCAA`: “RBNS enrichment (R)” 0.661.
`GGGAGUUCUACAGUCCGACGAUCGUCAUGCUCCUGCAGGAAGAUGAGUCAUUUUUAGCACCACCUGAAGACUUUUAUUUAAAACAGCUUUCAUAUUAAACUGCUGCUGUAUUAAACAGACCUUAGUUUCCAUAUGGAAUUCUCGGGUGCCAA` — result for “RBNS enrichment (R)”: 0.468.
Under “RBNS enrichment (R)”, `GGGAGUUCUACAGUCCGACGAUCUGCAUUUUCUAAACAGAGAUGAGGUGGUAUCUUCACGUAGAACAUUGGUAUUCGCUUGAGAAAAAAAGAAUAGUUGAACCUAUUUCUCUUUCUUUACAAGAUGGGUCCAGUGGAAUUCUCGGGUGCCAA` is recorded as 0.294.
For `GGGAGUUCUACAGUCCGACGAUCUCUUUUCCAGAGUGUGGAUUUGAACUACUUCCCCCUGCAAAGGGCCGCGUGCACCCUGCCGAGCUGCGUAUAUUCUGUACUGUGUACAAUAAAGAAGAUUGCUUUCCUUAUGGAAUUCUCGGGUGCCAA`, “RBNS enrichment (R)” read 0.189.

Series 2
Target: Interferon regulatory factor 7, full length, phosphomimetic (IRF7, Homo sapiens, UniProt Q92985, residues 1-503, S101K/S471D/S472D/S475D/S476D/S477D/S483D/S484D/S487D)
Method: protein-binding microarray
Form: double-stranded DNA, one strand shown
Sample: in vitro
Concentration: 250 nM
Notes: 60-bp whole probe
Added: salmon DNA 0.4 mg/ml
Relative to: random background probes
Direction: higher = stronger binding
Constant ends, left off below: GCCTAGCAC … GTCTTGATTCGCTTGACGCTGCTG
Residues (chain): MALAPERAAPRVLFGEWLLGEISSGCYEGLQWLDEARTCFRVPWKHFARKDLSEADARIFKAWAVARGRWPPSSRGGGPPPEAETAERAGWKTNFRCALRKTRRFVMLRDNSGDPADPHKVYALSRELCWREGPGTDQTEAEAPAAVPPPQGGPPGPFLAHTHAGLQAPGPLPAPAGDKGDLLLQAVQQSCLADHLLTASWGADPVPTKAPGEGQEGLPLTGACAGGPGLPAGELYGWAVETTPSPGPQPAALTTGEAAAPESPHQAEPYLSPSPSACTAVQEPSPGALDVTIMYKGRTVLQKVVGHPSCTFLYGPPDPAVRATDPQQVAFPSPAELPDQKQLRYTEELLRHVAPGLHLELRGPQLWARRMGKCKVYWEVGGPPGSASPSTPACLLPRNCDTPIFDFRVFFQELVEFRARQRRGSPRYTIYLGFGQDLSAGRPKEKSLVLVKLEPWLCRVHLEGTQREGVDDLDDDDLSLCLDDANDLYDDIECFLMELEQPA
For `GACAGTATCGACTTTCGGGACGTGCTA`, the log fluorescence was 1.3 z-score.
For `GACGGTCTCGGACTCGGGACGTGCTAG`, the log fluorescence was 0.43 z-score.
For `GACGGTTTCCTGATCCTGACGTGCTAG`, the log fluorescence was 1.3 z-score.
For `GACGATATTAGTATCGAGACGTGCTAG`, the log fluorescence was 0.497 z-score.
For `ACATCCAAATCCACCATTCAGTGCTAG`, the log fluorescence was 0.59 z-score.
`GACGGTCTCGCTCTCGGGACGTGCTAG` gave a log fluorescence of -0.0163 z-score.
The log fluorescence of `TCATTCTTCCCTGTGAAACTGTGCTAG` is reported as 1.47 z-score.
The log fluorescence of `TCAGTGGTCTGTTTCTGACTGTGCTAG` is reported as -0.261 z-score.
For `CAAGTTTCTCCTTTCCAAATGTGCTAG`, the log fluorescence was 4.67 z-score.
`GACGGTTTCGACAATGGGGACGTGCTA` gave a log fluorescence of 2.56 z-score.
`TCAAATCTCCCATTATAACTGTGCTAG` gave a log fluorescence of 0.49 z-score.
For `GACGGTATAGGTATCGGGACGTGCTAG`, the log fluorescence was -0.371 z-score.
`GACGGTATAGGACTGGGGACGTGCTAG` has a log fluorescence of -0.567 z-score.
The log fluorescence of `GACGGTATCGGGTATCGAGACGTGCTA` is reported as 0.57 z-score.
For `TTAGGACTGATTTTCCTTTAGTGCTAG`, the log fluorescence was 0.721 z-score.
With `TTAGGTCTCGGTTTCGGGTAGTGCTAG` the log fluorescence was 8.2 z-score.
For `AGGAAAGTGTTTCTCAACCAGTGCTAG`, the log fluorescence was -0.0982 z-score.
`TTATGTTTCGACACTGGGTTAGTGCTA` gave a log fluorescence of 1.26 z-score.
`GCGCCTTGATGTCTGGGTCTGTGCTAG` gave a log fluorescence of -0.355 z-score.
`CTAGGACTGGGGTATCGGTTAGTGCTA` has a log fluorescence of 0.56 z-score.
`GACGATATCGCGACTGGAGACGTGCTA` has a log fluorescence of -0.216 z-score.
The log fluorescence of `GACGAACTGAGACTGGAGAAGTGCTAG` is reported as -0.183 z-score.
With `TTAGATATCGGGACTGGACTAGTGCTA` the log fluorescence was -0.204 z-score.
`ATAGGTATCCTTCTCCTTTAGTGCTAG` gave a log fluorescence of 0.366 z-score.
The log fluorescence of `GAGTGCTGGGATTACAGGCAGTGCTAG` is reported as -0.852 z-score.

Series 3
Target: CCNE1, cyclin fold, Cln2 fusion (human)
Method: yeast growth competition, sequencing
Sample: yeast
Notes: weak parent motif
Relative to: not given
Direction: higher = stronger binding
Parent: MICAL3 docking peptide (human); LQLRRQLSFSEDS
`L3S`: “normalised enrichment score” 1.17.
Under “normalised enrichment score”, `Q6G` is recorded as 0.188.
For `E11T`, “normalised enrichment score” read 0.708.
Under “normalised enrichment score”, `F9Y` is recorded as 1.12.
Under “normalised enrichment score”, `Q2E` is recorded as 1.02.
For `L3D`, “normalised enrichment score” read 0.0851.
`Q6V`: “normalised enrichment score” 1.59.
`R5G` — result for “normalised enrichment score”: 0.0879.
`R5P` — result for “normalised enrichment score”: 0.159.
Under “normalised enrichment score”, `R4W` is recorded as 0.475.
`Q2L`: “normalised enrichment score” 1.05.
`D12R`: “normalised enrichment score” 0.494.
Under “normalised enrichment score”, `R5N` is recorded as 0.233.
For `Q2D`, “normalised enrichment score” read 0.557.
For `F9P`, “normalised enrichment score” read 0.0982.
`Q2Y`: “normalised enrichment score” 0.946.
`L3H` — result for “normalised enrichment score”: 2.48.
Under “normalised enrichment score”, `L7N` is recorded as -0.13.

Series 4
Target: Sal-like protein 4, full length isoform A (SALL4, Homo sapiens, UniProt Q9UJQ4, residues 1-1053)
Sequence of UniProt Q9UJQ4 (whole entry, looked up): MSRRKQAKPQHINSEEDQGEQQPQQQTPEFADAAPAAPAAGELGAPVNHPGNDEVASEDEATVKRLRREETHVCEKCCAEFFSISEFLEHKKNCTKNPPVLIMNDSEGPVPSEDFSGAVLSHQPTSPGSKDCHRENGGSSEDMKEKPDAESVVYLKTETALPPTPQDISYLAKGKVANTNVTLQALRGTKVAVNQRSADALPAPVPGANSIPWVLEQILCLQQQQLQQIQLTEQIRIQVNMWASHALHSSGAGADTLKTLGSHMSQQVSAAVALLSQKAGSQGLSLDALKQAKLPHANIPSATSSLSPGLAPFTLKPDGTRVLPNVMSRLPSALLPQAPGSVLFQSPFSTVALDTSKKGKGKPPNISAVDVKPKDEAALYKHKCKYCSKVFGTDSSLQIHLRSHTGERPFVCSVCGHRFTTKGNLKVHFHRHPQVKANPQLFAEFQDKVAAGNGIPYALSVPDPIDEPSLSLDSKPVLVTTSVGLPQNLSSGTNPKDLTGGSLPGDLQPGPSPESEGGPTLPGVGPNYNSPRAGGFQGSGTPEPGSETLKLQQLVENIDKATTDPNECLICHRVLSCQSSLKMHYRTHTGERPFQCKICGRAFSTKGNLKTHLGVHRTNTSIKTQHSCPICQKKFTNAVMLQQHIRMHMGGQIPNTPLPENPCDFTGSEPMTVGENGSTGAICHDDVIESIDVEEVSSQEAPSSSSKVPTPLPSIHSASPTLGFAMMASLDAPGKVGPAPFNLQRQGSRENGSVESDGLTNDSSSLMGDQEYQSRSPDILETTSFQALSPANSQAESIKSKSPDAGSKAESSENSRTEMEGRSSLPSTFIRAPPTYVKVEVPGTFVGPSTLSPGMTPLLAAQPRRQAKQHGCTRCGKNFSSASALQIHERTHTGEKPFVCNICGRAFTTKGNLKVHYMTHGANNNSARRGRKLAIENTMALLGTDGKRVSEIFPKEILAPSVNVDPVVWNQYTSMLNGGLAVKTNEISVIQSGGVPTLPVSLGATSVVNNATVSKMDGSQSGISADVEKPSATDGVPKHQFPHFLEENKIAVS
Method: universal PBM
Form: double-stranded DNA, one strand shown
Sample: in vitro
Concentration: 600 nM
Notes: 8-mer, flanks averaged, mean of replicates
Direction: higher = stronger binding
The E-score of `CCTAGTTC` is reported as -0.0129.
The E-score of `GCCCGCAC` is reported as -0.277.
With `CGAAGTCG` the E-score was -0.0791.
`GCCCTAGA` has an E-score of -0.251.
For `CTGGGGAA`, the E-score was -0.372.
`AATAGTCT` gave an E-score of 0.283.
`CGCGGGCC` has an E-score of -0.425.
With `GATTATGC` the E-score was 0.0882.
`ATTCTTCG` gave an E-score of 0.0838.
`GTCGAAAC` has an E-score of -0.119.
The E-score of `TCTGCAAA` is reported as 0.148.
`CCTTGCAC` has an E-score of -0.124.
With `GAGATTGC` the E-score was -0.185.
The E-score of `ACTAACAC` is reported as 0.0713.
`GTACTAAA` gave an E-score of 0.255.
For `ACATTATG`, the E-score was 0.277.

Series 5
Target: Histone acetyltransferase KAT6A, both winged helices, GST fusion (KAT6A, Homo sapiens, UniProt Q92794, residues 1-181)
Method: protein binding microarray
Form: double-stranded DNA, one strand shown
Sample: in vitro
Concentration: not given
Notes: 8-mer, flanks averaged, mean of 2 arrays, mostly near background
Relative to: not given
Direction: higher = stronger binding
Residues (chain): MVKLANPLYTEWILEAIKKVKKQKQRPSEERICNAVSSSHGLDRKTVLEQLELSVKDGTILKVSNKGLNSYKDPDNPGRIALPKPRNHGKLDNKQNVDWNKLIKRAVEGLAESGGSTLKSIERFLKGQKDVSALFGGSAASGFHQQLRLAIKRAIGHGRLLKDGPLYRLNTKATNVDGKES
`GGAGCCAC` gave an E-score of -0.176.
`AAGTCTGA` has an E-score of -0.214.
For `CAGTTAGA`, the E-score was -0.127.
With `AAGATGAG` the E-score was -0.219.
The E-score of `GCCTCACC` is reported as -0.00256.
For `CGTCCATA`, the E-score was 0.0132.
`CTTCATGC` gave an E-score of 0.0418.
`GAAATAGA` gave an E-score of -0.222.
`GTCCTCGA` gave an E-score of -0.0632.
For `AATTGCTC`, the E-score was -0.136.
For `TACTAAGA`, the E-score was 0.00547.
`GCGACGCC` has an E-score of 0.308.
`GCCATTTA` gave an E-score of -0.127.
For `AGGGCTAT`, the E-score was -0.222.
The E-score of `ACTATAAA` is reported as -0.104.
`ACCCGCTA` has an E-score of 0.19.
`TACGCTAA` gave an E-score of 0.147.
The E-score of `ATGCTTGG` is reported as -0.0883.
For `AGTTCTCC`, the E-score was -0.0331.
For `CTACACAG`, the E-score was -0.0961.
`CTTCGAAA` has an E-score of 0.0547.
The E-score of `GTATCCGA` is reported as 0.152.
For `AGACCATG`, the E-score was -0.191.
`TGTATCAA` has an E-score of -0.0465.

Some of these lines once more (series 5):
For `AATTGCTC`, the E-score was -0.136.
For `TACTAAGA`, the E-score was 0.00547.
`GCGACGCC` has an E-score of 0.308.
`GCCATTTA` gave an E-score of -0.127.
For `AGGGCTAT`, the E-score was -0.222.
The E-score of `ACTATAAA` is reported as -0.104.
`ACCCGCTA` has an E-score of 0.19.
`TACGCTAA` gave an E-score of 0.147.
The E-score of `ATGCTTGG` is reported as -0.0883.
For `AGTTCTCC`, the E-score was -0.0331.
For `CTACACAG`, the E-score was -0.0961.
`CTTCGAAA` has an E-score of 0.0547.
The E-score of `GTATCCGA` is reported as 0.152.
